Measurements from different studies.
Compare with care: the assays were run in different laboratories. Values joined by “and” are separate records of one study, mostly repeats; a detail may differ. Numbers after ± are the reported error. Converted amounts (≈) assume the structure as drawn.
Chain of UniProt Q9P289 (whole entry, looked up): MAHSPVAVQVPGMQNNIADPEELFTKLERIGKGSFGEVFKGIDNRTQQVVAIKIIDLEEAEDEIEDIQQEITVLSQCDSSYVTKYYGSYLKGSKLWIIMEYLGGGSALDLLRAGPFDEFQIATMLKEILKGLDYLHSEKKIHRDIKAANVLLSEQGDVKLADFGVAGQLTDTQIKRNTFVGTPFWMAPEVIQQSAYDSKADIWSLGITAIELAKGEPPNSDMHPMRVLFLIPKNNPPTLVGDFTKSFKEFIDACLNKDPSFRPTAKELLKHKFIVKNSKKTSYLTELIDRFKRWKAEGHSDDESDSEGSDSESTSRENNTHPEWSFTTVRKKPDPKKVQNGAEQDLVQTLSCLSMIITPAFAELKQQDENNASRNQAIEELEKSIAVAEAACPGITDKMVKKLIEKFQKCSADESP

| SMILES | target or system | test | test system | setting | scale | measurement | value |
| --- | --- | --- | --- | --- | --- | --- | --- |
| O=c1c(-c2cnn(-c3ccccc3)c2)c(C(F)(F)F)oc2c(O)c(O)ccc12 | – | – | mouse | intraperitoneal, 100 mg/kg, DMSO vehicle | – | plasma clearance | 231 mL/min/kg |
| COc1ccc(Nc2nc(Nc3ccc(OCCOCCOCC[18F])cc3)ncc2Br)cc1 | – | – | ICR mice, S180 tumour | intravenous, 370 kBq, 60 min | reference: tumour over blood | uptake ratio | 1.26 |
| CC(C(=O)O)n1nc(Cn2cc3cc(OCC[18F])c(Cl)cc3n2)c2ccccc2c1=O (racemic) | – | – | rat, muscle | 2 h | – | tracer uptake | 0.04 %ID/g |
| N#C[C@@H]1CC(F)(F)CN1C(=O)CNC(=O)c1ccnc2c(NC(=O)[C@H](CCCCNC(=O)CCOCCOCCOCCOCCOCCOCCNC(=O)CN3CCN(CC(=O)[O-])CCN(CC(=O)[O-])CCN(CC(=O)[O-])CC3)NC(=O)CCCc3ccc(I)cc3)cccc12.[177Lu+3] | – | – | human serum | 24 h, 37 °C, 177Lu-labelled | – | radiochemical stability | 92.5 ± 2.4% |
| CCCCN1C(=O)c2cccc3c(NCCCCCCCCN4CCOCC4)ccc(c23)C1=O | – | – | ethyl acetate | – | – | Stokes shift | 84 nm |
| CNC(=O)C1CCCN(C(=O)C2CC3CCC2N3C(=O)[C@@H]2C[C@@H](O)CN2C(=O)NCc2cccc(Cl)c2F)C1 (mixture of isomers) | CYP3A4 (human) | inhibitor, time-dependent inhibition | – | 0.206 µM, preincubated with NADPH, together with: testosterone substrate | reference: negative control | remaining activity | 100% |
| CCCCN1C(=O)c2cccc3c(NCCCCCCN4CCOCC4)ccc(c23)C1=O | – | – | chloroform | – | – | fluorescence quantum yield | 1.17 |
| COC1CN([C@H]2CC[C@H]([C@@]3(C)Oc4c(Cl)cc(C(=O)NCc5c(SC)cc(C)[nH]c5=O)c(C)c4O3)CC2)C1 | – | RNA-seq, item: DAPK1 mouse homolog | mouse, HT-1376 xenograft, whole blood | dose not given | reference: vehicle | log2 fold change | 0.212 |
| CCC1CNC(CC)CN(C(C(=O)[O-])c2ccc(C(=O)[O-])cc2)C(CC)CN(CC(=O)[O-])C(CC)CN1.[Mn+2] (centres unmarked) | – | ICP-MS | BALB/c mouse, heart | intravenous, 0.05 mmol/kg, 1440 min, without anaesthesia | – | Mn content | 0.62 ± 0.02 µg/g |
| CCCCN1C(=O)c2cccc3c(NCCCCCN4CCOCC4)ccc(c23)C1=O | – | – | dioxane | – | – | Stokes shift | 80 nm |
| [11CH3]N1CCC(NC(=O)c2cc(-c3c(O)cc(O)cc3Oc3ccc([N+](=O)[O-])cc3)on2)CC1 | – | – | healthy female Wistar rats, kidneys | intravenous, 60 min | – | standardized uptake value | 3 ± 0.7 g/mL |
| CCCCN1C(=O)c2cccc3c(NCCN4CCOCC4)ccc(c23)C1=O | – | – | dichloromethane | – | – | Stokes shift | 77 nm |
| OCC1OC(n2cnc3c(NCc4ccc(Br)s4)ncnc32)C(O)C1O (centres unmarked) | – | – | Beagle dogs, both sexes, blood | oral, 3 mg/kg | – | Tmax | 1.5 to 2.8 h |
| COc1ccc2cc3[n+](cc2c1OCCCOC(=O)c1cscn1)CCc1cc2c(cc1-3)OCO2 | – | item: urea nitrogen, creatinine, CK-MB, cTnT | C57BL/6 mouse | dose not given, 14 weeks | – | kidney and heart toxicity markers | no effect |
| Cc1nn(-c2cccc(N)c2)c(=O)c2cnc(Nc3ccc(N4CCNCC4)cc3)nc12 | STK26 (Homo sapiens, UniProt Q9P289) | kinase activity, inhibitor, SelectScreen kinase profiling | – | – | – | IC50 | 2890 nM |
| O=C(NCC1OC2CCC=CCCC2O1)c1ccc([18F])nc1 (centres unmarked) | – | – | healthy female BALB/c nude mice, stomach | intravenous, 7.4 MBq per mouse, 5 min | – | tissue uptake | 4.1 ± 1.3 %ID/g |
| CC(C)(C)C(=O)Nc1ccc2[nH]c(CN3CCC(N(CCCN4CCOCC4)CC4OC(n5cnc6c(N)ncnc65)C(O)C4O)CC3)nc2c1 (centres unmarked) | – | – | male Sprague-Dawley rat, plasma | intraperitoneal, 20 mg/kg, 4 h | – | concentration | 53 ng/mL |
| CN(Cc1cc(C2CC2)on1)C(=O)c1cccc(-c2ccc(F)cc2)c1 | – | – | male ICR/CD-1 mouse, liver microsomes | 2 µM, 5 min, pH 7.5, together with: 1-aminobenzotriazole 500 µM, preincubated 30 min | – | remaining compound | 89.6% |
| Nc1ncnc2[nH]c(/C=C/c3ccc(Cl)cc3)nc12 | – | HPLC | solution, dark | before light exposure | – | purity | 99.7% |
| Cc1nc(N)nc2c1C(=O)N[C@@H](c1ccc(F)cc1-c1cccc(O[11CH3])n1)C2 | – | ex vivo biodistribution | mice, U87 subcutaneous xenograft, bone | 60 min post-injection, baseline, vehicle pre-treatment | – | SUV | 0.8 ± 0.4 |
| O=C(Nc1cnccc1-c1ccc([18F])nc1)c1ccnc(NC(=O)C2CC2)c1 | – | – | mice, transgenic, GSK-3β, early-stage, spleen | intravenous, dose not given, 120 min, together with: tariquidar 15 mg/kg i.v. pre-dose | – | SUV | 0.173 |
| Cc1n[nH]c(C)c1CCCOc1cc(C(=O)NCCCCC(NC(=O)CN2CCN(CC(=O)[O-])CCN(CC(=O)[O-])CCN(CC(=O)[O-])CC2)C(=O)NCC2CCC(C(=O)NC(Cc3ccc4ccccc4c3)C(=O)NCCCCC(NC(=O)NC(CCC(=O)O)C(=O)O)C(=O)O)CC2)ccc1F.[177Lu+3] (centres unmarked) | – | radio-HPLC | mouse serum | 8 days, 37 °C | – | radiochemical purity | 89.9 ± 1.58% |
| CN1CCCNC(=O)c2cccc(c2)C(=O)NCCCN(C)CCCNc2cccc3c2C(=O)c2cccc(c2C3=O)NCCC1 | – | – | mice, serum | dose not given | – | uric acid | 2.37 mg/dL |
| CC(C)Cc1ccc(C(C)C(=O)N[C@@H](CCCCNC(=O)CCOCCOCCOCCOCCOCCOCCNC(=O)CN2CCN(CC(=O)[O-])CCN(CC(=O)[O-])CCN(CC(=O)[O-])CC2)C(=O)Nc2cccc3c(C(=O)NCC(=O)N4CC(F)(F)C[C@H]4C#N)ccnc23)cc1.[177Lu+3] (some centres unmarked) | – | – | PBS | 1 h, 37 °C, 177Lu-labelled | – | radiochemical stability | 99.42 ± 0.2% |

| SMILES | target or system | test | test system | setting | scale | measurement | value |
| --- | --- | --- | --- | --- | --- | --- | --- |
| Cc1cc(-c2ccc(C(=O)[C@@H]3CCCC[C@H]3C(=O)Nc3cnn4c3C(=O)NCC4)cc2)[nH]n1 | – | – | human, urine | oral, 200 mg, 0-120 h | reference: dose | cumulative recovery of radioactivity | 5.87% |
| CC(=O)N([O-])CCCCCNC(=O)CCC(=O)N([O-])CCCCCNC(=O)CCC(=O)N([O-])CCCCCN.[89Zr+4] | – | – | PBS | 7 days, pH 7, 37 °C | – | intact compound | 97.6 ± 1% |
| CC[C@H](C)[C@@H]1NC(=O)[C@H](Cc2ccc(O)cc2)NC(=O)CCCSC[C@@H](C(=O)N(CC(=O)N[C@@H](CC(C)C)C(=O)NCC(N)=O)Cc2ccc(F)cc2)NC(=O)[C@H](CC(N)=O)NC(=O)[C@H](CCC(N)=O)NC1=O | – | – | human, plasma | intranasal, 50 µg every 3 h, 11 doses, after second dose | – | terminal half-life | 2.97 h |
| COc1cccc(OC)c1-c1cc(C(=O)NC2(C(=O)O)C3CC4CC(C3)CC2C4)nn1-c1ccc(C(=O)N(C)CCOCCOCCN(C)C(=O)[C@H](CCCCNC(=O)[C@H](CC(C)C)NC(=O)C2OC2C(=O)O)NC(=O)CN2CCN(CC(=O)[O-])CCN(CC(=O)[O-])CCN(CC(=O)[O-])CC2)cc1C(C)C.[177Lu+3] (mixture of isomers) | – | – | mouse HT-29 xenograft | 24 h, biodistribution | reference: tumour over stomach | tumour-to-stomach ratio | 19.8 |
| CNc1cc(N)c(C(N)=O)c[n+]1C | – | substrate, item: methylated product | rats, plasma | oral, 30 mg/kg, 2.00 h | – | plasma concentration of product | 198 nM and 192 nM |
| COC(=O)CN1CCN(Cc2cc(-c3nc4ccccc4s3)cc(OC)c2O)CCN(Cc2cc(-c3nc4ccccc4s3)cc(OC)c2O)CC1 | – | UV-vis spectrophotometric titration | aqueous NaCl 0.1 M | 20 µM, 25 °C, pH 3 to 11 | – | pKa3 | 7.3 |
| C=CC(=O)Nc1cc(Nc2nccc(-c3cn(C)c4ccccc34)n2)c(OC)cc1N(C)CCNC | – | storage stability | human plasma | 72 h, on ice, low QC level | – | recovery | 71.3% |
| CC1(C)CC[C@@]2(CO)C(=C3C=C[C@@H]4[C@@]5(C)CC[C@H](O)[C@@](C)(CO)[C@@H]5CC[C@@]4(C)[C@]3(C)C[C@@H]2O)C1 | – | UHPLC-MS/MS | mouse, plasma | oral, 50 mg/kg of saikosaponin a, 12 h | – | plasma concentration | 0 ng/mL |
| CC[C@H](C)[C@H](NC(=O)[C@H](Cc1ccc(O)cc1)NC(=O)[C@@H](NC(=O)[C@H](CCCNC(=N)N)NC(=O)[C@@H](N)CC(=O)O)C(C)C)C(=O)N[C@@H](Cc1c[nH]cn1)C(=O)N1CCC[C@H]1C(=O)O | – | LC-MS/MS | Sprague-Dawley rat, both sexes, plasma | subcutaneous, 10 mg/kg/day, day 0, 1 h, 60 min | – | plasma concentration | 5.93 ng/mL |
| Cc1nc(N)nc2c1C(=O)N[C@@H](c1ccc(F)cc1-c1cccc(OCC[18F])n1)C2 | – | HPLC | – | 120 min post end of synthesis | – | radiochemical stability | stable |
| O=C(O)CCCOc1ccc([18F])cc1-c1cc(-c2ccccc2C(F)(F)F)n(-c2ccccc2)n1 | – | OLINDA/EXM from mouse data, item: stomach wall | human adult | – | – | absorbed dose | 12.7 µGy/MBq |
| N#C[C@@H]1CC(F)(F)CN1C(=O)CNC(=O)c1ccnc2c(NC(=O)CCOCCOCCOCCOCCOCCOCCNC(=O)[C@H](CCCCNC(=O)CN3CCN(CC(=O)[O-])CCN(CC(=O)[O-])CCN(CC(=O)[O-])CC3)NC(=O)CCCc3ccc(I)cc3)cccc12.[177Lu+3] | – | – | human serum | 24 h, 37 °C, 177Lu-labelled | – | radiochemical stability | 98.7 ± 1.2% |
| O=C1c2sc(-c3ccc(N4CCC(F)C4)nc3F)nc2CCN1c1cccnc1 (centres unmarked) | – | – | CD1 mouse, brain | i.v., dose not given, 0.25 h | – | concentration | 157 ng/g and 260 ng/g and 218 ng/g |
| C=C(NC(=O)c1csc(-c2nc3c(cc2O)-c2nc(cs2)C(=O)NC(C(C)O)C(=O)NC(=C(C)OC)c2nc(cs2)C(=O)NC2c4nc(cs4)C(=O)NC(COC(=O)c4c5c6c(cccc6n4O)COC(=O)C(OC4CC(C)(O)C(N(C)C)C(C)O4)C2OC5)c2nc-3cs2)n1)C(N)=O (centres unmarked) | – | – | male cynomolgus monkey, plasma | intravenous, 3 mg/kg, single dose, infusion | – | Tmax | 0.67 h |
| O=C(Nc1cnccc1-c1ccc([18F])cc1)c1ccnc(NC(=O)C2CC2)c1 | – | ex vivo biodistribution, gamma counting | mouse, GSK-3β transgenic, late stage, right kidney | intravenous, 120 min | – | SUV | 0.74 |
| CC(C)OCCOCc1ccc(OCC(O)CN(N=O)C(C)C)cc1 (centres unmarked) | Salmonella typhimurium | Ames test | TA1535 | 500 µg/plate, without metabolic activation | reference: solvent control | revertant fold increase | 0.7 fold |
| O=S1(=O)CC2CCCCC2CS1 (centres unmarked) | – | phase solubility, NMR | water | 25 °C, together with: hydroxypropyl-β-cyclodextrin 295 mM | – | solubility | 30.6 mM (≈ 6310 µg/mL) |
| CCCCN1C(=O)c2cccc3c(NCCCCCCCCCCN4CCOCC4)ccc(c23)C1=O | – | – | dichloromethane | – | – | Stokes shift | 87 nm |
| C/C(N)=N/C(=N\S(=O)(=O)c1ccc(C(F)(F)F)cc1)N1C[C@H](c2ccccc2)C(c2ccc(Cl)cc2)=N1 | – | – | female cynomolgus monkey, plasma | oral, 18 mg/kg | – | Tmax | 4 h |
| O=S(=O)(N[C@H]1CCO[C@@H](C2c3ccc(F)cc3CCc3cc(F)ccc32)C1)c1ccc(OC(F)(F)F)cc1 | – | – | mouse, brain homogenate | oral, 30 mg/kg, 2 h | – | brain concentration | 960 ng/g |
| Cc1cc(C(=O)NC(C)(C)C(=O)O)cc(C)n1 | – | LC-MS metabolite profiling | Sprague-Dawley rat, both sexes, plasma | oral, 100 mg/kg of parent drug, 0.25 (unit not given) | higher = more metabolite | plasma peak area | 76100 a.u. |
| CCCCN1C(=O)c2cccc3c(NCCCCN4CCOCC4)ccc(c23)C1=O | – | – | toluene | – | – | Stokes shift | 74 nm |
| [123I]c1ccc2nc(-c3ccc(-n4ccnn4)nc3)cn2c1 | – | – | male Wistar rat, blood | intravenous, 4 MBq, 30 min | – | tracer uptake | 0.2 %ID/g |

Excerpt of the above:
| SMILES | target or system | test | test system | setting | scale | measurement | value |
| --- | --- | --- | --- | --- | --- | --- | --- |
| CC(C(=O)O)n1nc(Cn2cc3cc(OCC[18F])c(Cl)cc3n2)c2ccccc2c1=O (racemic) | – | – | rat, muscle | 2 h | – | tracer uptake | 0.04 %ID/g |
| N#C[C@@H]1CC(F)(F)CN1C(=O)CNC(=O)c1ccnc2c(NC(=O)[C@H](CCCCNC(=O)CCOCCOCCOCCOCCOCCOCCNC(=O)CN3CCN(CC(=O)[O-])CCN(CC(=O)[O-])CCN(CC(=O)[O-])CC3)NC(=O)CCCc3ccc(I)cc3)cccc12.[177Lu+3] | – | – | human serum | 24 h, 37 °C, 177Lu-labelled | – | radiochemical stability | 92.5 ± 2.4% |
| CCCCN1C(=O)c2cccc3c(NCCCCCCCCN4CCOCC4)ccc(c23)C1=O | – | – | ethyl acetate | – | – | Stokes shift | 84 nm |
